Results of several laboratories.
Each line is one published result; not all experiments were run side by side. Values joined by “and” are separate records of one study, mostly repeats; a detail may differ. Numbers after ± are the reported error.

| SMILES | assay | system | setting | how to read | endpoint | value |
| --- | --- | --- | --- | --- | --- | --- |
| CCCCC1(CCCC)CN(c2ccccc2)c2cc(SC)c(OCC(=O)N[C@@H](C(=O)NCC(=O)O)c3ccccc3)cc2S(=O)(=O)C1 | refers to: LDL cholesterol | human, serum | 5 mg once daily, day 8 | – | serum LDL-C | 97.2 mg/dL |
| CCCCCN1C[C@H](O)[C@@H](O)[C@H](O)[C@@H]1CO | – | Hexb-/- mice, female | 300 mg/kg/day | – | median survival | 156 days |
| CC(C)(O)c1cnc2ncc(-c3ccc(F)c(-c4c(F)cccc4C#N)c3)n2n1 | food-maintained responding | Sprague-Dawley rat | intraperitoneal, acute dependence model, with: diazepam pretreatment 30 min | reference: diazepam alone | minimum effective dose | ≥ 0.03 mg/kg |
| Cc1cn(-c2cc(NC(=O)c3ccc(C)c(Nc4nccc(-c5cccnc5)n4)c3)cc(C(F)(F)F)c2)cn1 | – | Homo sapiens | 150 mg, 6 months | direction not given | NPI caregiver distress score | 2.7 ± 3.7 |
| [131I-].[Na+] | – | human, paediatric low-risk differentiated thyroid carcinoma | 30-100 mCi | – | complete response after single dose | 83.3% |
| C[C@H]1O[C@@H](O[C@H]2CC[C@@]3(C)[C@@H](CC[C@]4(C)[C@@H]3C=C[C@]35OC[C@@]6(CCC(C)(C)C[C@H]63)[C@@H](O)C[C@]54C)[C@]2(C)CO)[C@H](O)[C@@H](O[C@@H]2O[C@H](CO)[C@@H](O)[C@H](O)[C@H]2O)[C@H]1O | – | mouse, ethanol-fed, AAV8-TBG-Null, plasma | dose not given, high dose | – | AST/ALT ratio | 2.73 and 1.43 and 2.47 and 2.34 and 1.74 and 2.43 |
| c1ccc2c(c1)Nc1ccccc1S2 | – | CT26 tumour-bearing mice | intraperitoneal, 100 mg/kg equivalents daily, day 2 | – | tumour volume | 277 mm³ |
| CC[C@H](C)[C@@H]1NC(=O)[C@@H]2CCCN2C(=O)[C@H](CC(C)C)NC(=O)[C@H](CC(C)C)NC(=O)CNC(=O)[C@@H](NC(=O)[C@@H](NC(=O)[C@H](CC(=O)O)NC(=O)CNC(=O)[C@@H](NC(=O)[C@H](C)NC(=O)CNC(=O)[C@H](CCCCN)NC(=O)[C@H](CC(C)C)NC(=O)[C@H](CC(C)C)NC(=O)[C@H](CCCCN)NC(=O)CNC(=O)[C@@H](NC(=O)[C@@H](N)CC(C)C)C(C)C)C(C)C)C(C)C)CSSC[C@@H](C(=O)O)NC1=O | RNA-seq, refers to: Pilrb2 mRNA | mouse traumatic brain injury, frontal cortex and hippocampus | dose not given | reference: TBI plus compound vs TBI | log2 fold change | -3.15 |
| CN1CCN(C(C(=O)NCCc2ccc(F)cc2)c2ccc(C#N)cc2)CC1 (stereo not drawn) | immunoblotting | rat, male and female, prefrontal cortex | ip, 100 mg/kg twice daily, 7 days, with: clavulanic acid 10 mg/kg | reference: vehicle | GLT-1 protein level | no effect |
| O=C(O)CNC(=O)c1cc2ccccc2n1Cc1ccc(Br)c2ccccc12 | – | mouse, acute hyperuricaemia model, serum | oral, 2 mg/kg, first screening | – | serum uric acid | 719 µM |
| COc1ccc([C@@H](O)c2cc(-c3ncnc4cc(N5CCOCC5)ccc34)c(F)cc2Cl)nn1 | – | mouse, orthotopic M15 xenograft | 125 mg/kg, with: radiotherapy | – | median survival | 36 days |
| Cc1nc(Nc2ccc(CC(=O)O)cc2)nc(Nc2ccc(F)c(C(F)(F)F)c2)c1C | – | C57BL/6J mice, high-fat diet, brown adipose tissue | intraperitoneal, 0.3 mg/kg daily, 60% fat diet 12 weeks, dosed last four | reference: vehicle | UCP1-positive area | increased |
| O=C(O)/C=C/C(=O)O.Oc1cccc2[nH]cc(CCNCc3ccccc3)c12 | – | C57BL/6J mice | subcutaneous, 0.03 mg/kg, 30 min | – | distance travelled | 2650 ± 254 cm |
| N.N.[Cl][Pt][Cl] | – | KSN/Slc nude mice, SAS xenograft | dose not given, day 4 | – | tumour volume | 189 mm3 and 90.8 mm3 and 171 mm3 and 178 mm3 and 348 mm3 and 53.1 mm3 and 76.8 mm3 and 109 mm3 |
| C=CC(=O)N[C@H]1C=C(C)c2c(-c3cnc4ccccc4c3)c3c(N)ncnc3n2C1 | – | NCI-H2073 EGFR SVD knock-in xenograft, BALB/c nude mice | 100 mg/kg once daily, 21 days | – | tumour growth inhibition | 79.7% |
| CN1CCN(S(=O)(=O)c2cc([N+](=O)[O-])ccc2N(CCOS(C)(=O)=O)CCOS(C)(=O)=O)CC1 | – | NSG mice, sample CI PDX | intraperitoneal, 25 mg/kg weekly x3 | – | event-free survival | > 365 days |
| C=CC(=O)Nc1cc(Nc2ncc(Cl)c(Nc3ccccc3C(=O)C(=O)N(C)C)n2)c(OC)cc1N1CCN(C)CC1 | RECIST v1.1 best response | human EGFR T790M NSCLC | oral, 50 mg/day, per-protocol set | – | patients with partial response | 0% |
| CC[C@H](C)[C@H](NC(=O)[C@H](CCC(=O)O)NC(=O)[C@H](CCCNC(=N)N)NC(=O)[C@H](CCCNC(=N)N)NC(=O)[C@H](CCCNC(=N)N)NC(=O)[C@H](CCC(N)=O)NC(=O)[C@H](CCCNC(=N)N)NC(=O)[C@H](CCCNC(=N)N)NC(=O)[C@H](CCCCN)NC(=O)[C@H](CCCCN)NC(=O)[C@H](CCCNC(=N)N)NC(=O)CNC(=O)[C@H](Cc1ccc(O)cc1)NC(C)=O)C(=O)N[C@@H](CC(=O)O)C(=O)N[C@@H](Cc1c[nH]cn1)C(=O)N[C@@H](CC(=O)O)C(N)=O | novel object recognition | db/db mouse | intravenous, dose not given, weekly | – | novel object exploration time | increased |
| CCCCC/C=C\C/C=C\C/C=C\C/C=C\CCCC(=O)NCCO | mechanical hypersensitivity, electronic von Frey | mouse, CFA inflammatory pain | i.p., 20 mg/kg | – | duration of action | 1 h |
| Cc1cccc(C)c1NC(=O)C1CCCCN1 (stereo not drawn) | – | Sprague-Dawley rat, male | intrathecal, 80 mM | – | sensory block duration | 43.4 ± 6.5 min |
| COc1ncc(-c2nc3c(n2C(C)C)[C@H](c2ccc(Cl)cc2)N(c2cc(Cl)cn(C)c2=O)C3=O)c(OC)n1 | antileukemic activity, refers to: treatment failure, resistant disease | human, acute myeloid leukaemia | 45 mg, low-dose, RDE | – | best overall response | 59.3% |

For quick reference, copied from above:
| SMILES | assay | system | setting | how to read | endpoint | value |
| --- | --- | --- | --- | --- | --- | --- |
| CN1CCN(S(=O)(=O)c2cc([N+](=O)[O-])ccc2N(CCOS(C)(=O)=O)CCOS(C)(=O)=O)CC1 | – | NSG mice, sample CI PDX | intraperitoneal, 25 mg/kg weekly x3 | – | event-free survival | > 365 days |
| O=C(O)/C=C/C(=O)O.Oc1cccc2[nH]cc(CCNCc3ccccc3)c12 | – | C57BL/6J mice | subcutaneous, 0.03 mg/kg, 30 min | – | distance travelled | 2650 ± 254 cm |
